Measurements from different studies.
A part holds a random share of what one study measured. Changes are numbered by the printed parent chain.

Study 1
Target: ABI1, truncated, D143A, DHFR fusion (Arabidopsis thaliana, UniProt P49597)
Technique: DHFR PCA, dose-response
Matrix: yeast
Notes: Hill fit, mean, not affinity
Added: (+)-ABA, dose series
Reading: lower = more sensitive
Parent: PYL1, truncated, DHFR fusion (Arabidopsis thaliana, UniProt Q8VZS8); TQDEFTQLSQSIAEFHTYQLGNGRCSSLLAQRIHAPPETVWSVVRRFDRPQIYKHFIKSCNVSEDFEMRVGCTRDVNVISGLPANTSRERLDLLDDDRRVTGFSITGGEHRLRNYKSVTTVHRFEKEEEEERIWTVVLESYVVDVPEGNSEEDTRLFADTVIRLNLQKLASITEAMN
`T160S` has an ABA EC50 of 19 µM.
The ABA EC50 of `Q51E` is reported as 3.04 µM.
With `E64S` the ABA EC50 was 2.26 µM.
`H122C` has an ABA EC50 of 95.7 µM.
`R32G` has an ABA EC50 of 21.1 µM.
`S26N` gave an ABA EC50 of 8.21 µM.
For `L156R`, the ABA EC50 was 21.1 µM.
With `T106S` the ABA EC50 was 34.3 µM.
`L164E` gave an ABA EC50 of 38.4 µM.
With `L20N` the ABA EC50 was 4.22 µM.
The ABA EC50 of `E151G` is reported as 7.01 µM.
With `R88F` the ABA EC50 was 2.35 µM.
The ABA EC50 of `T86Q` is reported as 13 µM.
The ABA EC50 of `S171A` is reported as 1.53 µM.
The ABA EC50 of `T6L` is reported as 8.93 µM.
With `K58Y` the ABA EC50 was 10.9 µM.

Study 2
Target: Fragile X messenger ribonucleoprotein 1, C-terminal low-complexity region (Fmr1, Mus musculus, UniProt P35922)
Technique: RNA Bind-n-Seq
Form: RNA
Matrix: in vitro
Tested at: 200 nM
Notes: whole 134-nt RNA, ends assumed
Added: 150 mM LiCl
Relative to: input library
Reading: higher = stronger binding
Library: 7-deaza-guanosine replaces G
Constant ends, left off below: GGGAGUUCUACAGUCCGACGAUC … UGGAAUUCUCGGGUGUCAAGG
For `UCAAGUCCUGUGCUACACAUCGUAUGUACCGAAUCGGGCCGGGGCCGGGGCCGGAAAGUAUUAUGUUACGCCGUUCGGAUCUGCACUUCC`, the log2 enrichment was 0.285.
For `UUUUACAUUUAUACACAUGUAUUGGCUUCCUUUUACACUAUUAGGCGGUCAAGAAGCAGAUCGAGACGGCGGUCACAUUCUAAGUCUAGG`, the log2 enrichment was 0.77.
`UGUACUGAUGACAGCUAAUCUCUGAAUCUUUUUCCUCCAGGAUGUUCCUUCAGGAGGAAGCAGCACUAAAAGCACUCUGAGUCAAGAUGA` gave a log2 enrichment of 0.216.
`GUCCUGUGCUACACAUCGUAUGUACCGAAUCGGGGCCCCCGGGCCCCCGGGCCCCCGGAAAGUAUUAUGUUACGCCGUUCGGAUCUGCAC` has a log2 enrichment of -2.83.
The log2 enrichment of `AAGUCCUGUGCUACACAUCGUAUGUACCGAAUCGGGAAAAAGGGAAAGGGAAAGGGAAAGUAUUAUGUUACGCCGUUCGGAUCUGCACUU` is reported as -0.292.

Study 3
Target: Sal-like protein 4, full length isoform B (SALL4, Homo sapiens, UniProt Q9UJQ4-2, residues 1-616)
Technique: universal PBM
Form: double-stranded DNA, one strand shown
Matrix: in vitro
Tested at: not given
Notes: 8-mer, flanks averaged, mean of replicates
Reading: higher = stronger binding
With `CTTCATGC` the E-score was -0.107.
The E-score of `ATAGCTCC` is reported as 0.104.
For `GGCGACGA`, the E-score was -0.243.
`CTCTAGAG` gave an E-score of -0.146.
The E-score of `AATCACTA` is reported as 0.13.
`CAACACAC` has an E-score of 0.0507.
The E-score of `CGACATAA` is reported as 0.2.
For `AGACTCCA`, the E-score was -0.175.
The E-score of `CCCCAGTC` is reported as -0.193.
For `CGCGCTAC`, the E-score was -0.0369.
`TAGACGGA` gave an E-score of 0.0536.
`TCGGGGCA` has an E-score of -0.139.
`AACCATCG` gave an E-score of -0.0308.
`AAGCGCAC` has an E-score of -0.161.
For `ACTGGTGA`, the E-score was -0.0158.
`CCGGCGAA` has an E-score of -0.225.
The E-score of `AGAGTAAT` is reported as 0.27.
For `TTAGGCAA`, the E-score was -0.0158.

Study 4
Target: Histone acetyltransferase KAT6A, winged helix 2, GST fusion (KAT6A, Homo sapiens, UniProt Q92794, residues 85-181)
Technique: protein binding microarray
Form: double-stranded DNA, one strand shown
Matrix: in vitro
Tested at: not given
Notes: 8-mer, flanks averaged, mean of 2 arrays, mostly near background
Relative to: not given
Reading: higher = stronger binding
Construct (chain): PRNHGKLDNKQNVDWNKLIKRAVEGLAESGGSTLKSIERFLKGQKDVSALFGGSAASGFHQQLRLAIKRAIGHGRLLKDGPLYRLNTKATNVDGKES
The E-score of `ACGCTAAG` is reported as -0.135.
`AAAGAGTA` gave an E-score of -0.11.
With `TACCGGTA` the E-score was -0.319.
With `CCCAGAAA` the E-score was 0.0466.
`AGCTAAAG` gave an E-score of 0.00688.
With `CACCGAAG` the E-score was 0.0231.
With `AGGTTCCC` the E-score was -0.0114.
For `GACCTCAC`, the E-score was -0.0801.
`CCGGCTGA` gave an E-score of 0.204.
`CCTACTTA` gave an E-score of -0.206.
`GGCGTTCA` has an E-score of 0.143.
With `CTGCAATA` the E-score was -0.044.
`ATACCATG` gave an E-score of -0.11.
The E-score of `ATAGAGTG` is reported as -0.106.
`GAACAGAC` has an E-score of 0.107.

Excerpt of the above (study 3):
The E-score of `CCCCAGTC` is reported as -0.193.
`CCGGCGAA` has an E-score of -0.225.
For `CGCGCTAC`, the E-score was -0.0369.
`AACCATCG` gave an E-score of -0.0308.
`CTCTAGAG` gave an E-score of -0.146.
`AAGCGCAC` has an E-score of -0.161.
`TAGACGGA` gave an E-score of 0.0536.
